# Experimental data collected from several papers.
# Every numbered part comes from another study and shows a few of its results, in no order.

# Series 1
# Target: RNA binding protein fox-1 homolog 2, RRM domain, GST-SBP tag (RBFOX2, Homo sapiens, UniProt O43251-10, residues 100-194)
# Technique: RNA Bind-n-Seq
# Molecule type: RNA
# Matrix: in vitro
# Concentration: 365 nM
# Setting: natural RNA segment, single round, ends assumed
# Reference: no-protein control
# Reading: higher = stronger binding
# All sequences stand within: GGGAGUUCUACAGUCCGACGAUC … UGGAAUUCUCGGGUGCCAA
# Construct (chain): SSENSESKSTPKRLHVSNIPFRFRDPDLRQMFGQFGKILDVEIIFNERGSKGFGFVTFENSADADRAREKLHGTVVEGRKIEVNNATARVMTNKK
Oligonucleotide,RBNS enrichment (R)
CUCUUACCUCCAGGCUUUGGUGCUUAACACAAAAUGACUGCAGAUGCCUCUCUGGAAGCCCUAGGCUCCAGGUGCUAUCUCUGUGGGAAGCAGCUACCUAAUUGGCAGGC,0.981
UGUGGGACUGUCAUGGCAUUUAGUUCAGAGUGGAGGGGCUUUGGCCUGAAAUAAAAUGCAAGUAUUUAAGAUUGUUGUUGCAAUUUGUGUCUAACAAGCUGUAGCAGAGA,0.819
UUAAGUGCAUUGGACUCCAGGAGAGCCAUUUGGGGUUUCUCUAGCUAAACAAUAAAUGUACCUGUCUCAGUCCGCUGGACUGAGUUGUUUUGAAGGUUCUCAUGGUGCAC,0.288
AGUGAUAGCGAUACAGCUCAGGAAUGGACUAUGGAAACUGAUACCUAGCGACAUUAGCUGAGAACACCACGGAGCUGCUUCCCUCCCUCUGCAGUCAGUCUGUUUUCAGA,0.509
CCUUGGUCACUGUGAUUUCUGUUUUGUUUAAAAAAUUCUUACAAACCUCAGGAAAACUGUGCCCUCCGCCGGCUACCUUAGCUUAGCGUGUCAGCGGGCGCCACAGCGGA,0.284
CGUCUUGGUGCCUUUUGUGUGACACGCCUUGCCGAUGGCUUGACAUGCGCAGAUGUGAGGGACACGCUCACCUUAGCCUUAAGGGGGUAGGAGUGAUGUUUUGGGGGAGG,0.304
GUCCUUAACUGGAAAGUGACCCUCUUCUACCCCUGGAGUCCAUCUGGACAGAGCCAGCCUGAGGCCCACGGGCAGCUGCCUGUUUGCAUGCCUGGGAAGAGGUCCUCAGU,2.18
CUUUAAAAUGAGAAUCUGGUGUUACUGUAUUUUAUCGUUUUCAAUAAAACUUCUUAAGUGUUUUGGACUUUUGAGAUAUUUGUAUUACUCCACUUAAAUAAUGAAAUCAG,0.934

# Series 2
# Target: Prothrombin, mature alpha-thrombin (F2, Homo sapiens, UniProt P00734)
# Technique: aptamer microarray, sandwich
# Molecule type: DNA with 2'F-ANA
# Matrix: in vitro
# Concentration: 200 nM
# Setting: whole 15-mer aptamer, many near background
# With: Cy3 exosite-II aptamer, 400 nM
# Reading: higher = stronger binding
# Oligonucleotide: GGTTGGTGTGGTTGG
Modification,mean fluorescence intensity [a.u.]
2'F-ANA at 1 2 3 8 9 10 15,85.7
2'F-ANA at 2 3 4 5 7 11 14 15,66.4
2'F-ANA at 4 11 13 15,199
2'F-ANA at 1 2 4 6 7 8 11 12 14 15,79.2
2'F-ANA at 1 2 3 6 8 9 10 12 15,84
2'F-ANA at 8 9 14 15,191
2'F-ANA at 2 3 4 7 8 9 12 15,966

# Series 3
# Target: Histone acetyltransferase KAT6A, winged helix 2, GST fusion (KAT6A, Homo sapiens, UniProt Q92794, residues 85-181)
# Technique: protein binding microarray
# Molecule type: double-stranded DNA, one strand shown
# Matrix: in vitro
# Concentration: not given
# Setting: 8-mer, flanks averaged, mean of 2 arrays, mostly near background
# Reference: not given
# Reading: higher = stronger binding
# Construct (chain): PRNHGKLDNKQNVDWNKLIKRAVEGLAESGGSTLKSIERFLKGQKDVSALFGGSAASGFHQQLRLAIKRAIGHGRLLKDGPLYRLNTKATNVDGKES
Oligonucleotide,E-score
CTGTCAGA,0.00494
CTCATAAC,-0.0377
ATAGATGC,-0.103
GGTGCATA,0.109
CAATTGTA,-0.103

# Other studies, line by line
Molecule,target,assay,test system,setting,how to read,measurement,result
"PhoQ, residues 284 288 289 292 302 303 SSCCRF","PhoP, residues 12 14 15 18 19 SMASL (Escherichia coli, UniProt P23836)","Sort-seq, item: YFP reporter",E. coli,"PhoQ-PhoP variant library, with: 10 µM Mg2+","reference: high Mg2+ state, higher = stronger signaling",fold induction,10

# Repeated from above (series 1):
Oligonucleotide,RBNS enrichment (R)
CCUUGGUCACUGUGAUUUCUGUUUUGUUUAAAAAAUUCUUACAAACCUCAGGAAAACUGUGCCCUCCGCCGGCUACCUUAGCUUAGCGUGUCAGCGGGCGCCACAGCGGA,0.284
CUCUUACCUCCAGGCUUUGGUGCUUAACACAAAAUGACUGCAGAUGCCUCUCUGGAAGCCCUAGGCUCCAGGUGCUAUCUCUGUGGGAAGCAGCUACCUAAUUGGCAGGC,0.981
AGUGAUAGCGAUACAGCUCAGGAAUGGACUAUGGAAACUGAUACCUAGCGACAUUAGCUGAGAACACCACGGAGCUGCUUCCCUCCCUCUGCAGUCAGUCUGUUUUCAGA,0.509
CGUCUUGGUGCCUUUUGUGUGACACGCCUUGCCGAUGGCUUGACAUGCGCAGAUGUGAGGGACACGCUCACCUUAGCCUUAAGGGGGUAGGAGUGAUGUUUUGGGGGAGG,0.304
